# Published values of several laboratories.
# Protocols differ between the studies behind these lines. “And” joins repeats or separate records; there may be more than shown. ± gives the spread as reported.
Structure (SMILES),target or system,assay,system,setting,scale,measurement,result
O=C(C[Se]C(=O)c1ccc2ccccc2c1)Nc1cccc(C(F)(F)F)c1,"NCI60 prostate subpanel (PC-3, DU-145)","cell growth, inhibitor",,five-dose,,GI50,1.82 µM
CCN(CC)CC(=O)Nc1cccc(-n2cc(-c3ccc4ccc(-c5cn(-c6cccc(NC(=O)CN(CC)CC)c6)nn5)cc4c3)nn2)c1,RCC4,"PCR angiogenesis array, measured: MMP9",,"5 x IC50, 4 h, normoxia",relative to: untreated,fold regulation,-1.32
O=C(C[Se]C(=O)c1ccccc1Nc1ccccc1)Nc1cccc(C(F)(F)F)c1,"NCI60 prostate subpanel (PC-3, DU-145)","total growth inhibition, inhibitor",,five-dose,,mean TGI,3.46 µM
COC1CN([C@H]2CC[C@H]([C@@]3(C)Oc4c(Cl)cc(C(=O)NCc5c(SC)cc(C)[nH]c5=O)c(C)c4O3)CC2)C1,,"RNA-seq, measured: TFPI2","human, whole blood","dose not given, 24 h",relative to: pretreatment baseline,log2 fold change,4.74
C[C@@H]1Cc2c([nH]c3ccccc23)[C@@H](c2c(F)cc(/C=C/C(=O)O)cc2F)N1C12CC(C1)C2,MCF7,"RNA-seq, measured: AMZ1 mRNA",,"1 µM, 24 h, E2-induced gene",relative to: DMSO vehicle,log2 fold change,-1.31
Cn1c(=O)n(C2CCC(=O)NC2=O)c2ccc(C3CCN(CC(=O)Nc4cccc(CS(=O)(=O)N5CC[C@H](Nc6cccc(-c7sc(C(=O)O)c(OCC(=O)O)c7Cl)c6)CC5(C)C)c4)CC3)cc21 (some centres unmarked),B16-F10,"HTRF, measured: phospho-STAT1 Tyr701",,"1.1 µM, together with: IFN-γ",relative to: DMSO,fold change,5.57 and 6.19 and 5.74 and 5.51 and 5.69 and 5.53
CC(C)(C)OC(=O)C1=C[C@@](C)(C(=O)OCC#Cc2ccncc2)CCC1=O,HEK293 AP-1 reporter,,,"concentration not given, unit not given, together with: PMA",relative to: PMA alone,AP-1 reporter activity,0.63
O=C(C[Se]C(=O)C12CC3CC(CC(C3)C1)C2)Nc1cccc(C(F)(F)F)c1,"NCI60 prostate subpanel (PC-3, DU-145)","cell growth, inhibitor",,five-dose,,GI50,2.93 µM
CC1(C)CC[C@@]2(CO)C(=C3C=C[C@@H]4[C@@]5(C)CC[C@H](O)[C@@](C)(CO)[C@@H]5CC[C@@]4(C)[C@]3(C)C[C@@H]2O)C1,"HepG2, negative control siRNA","Western blot, measured: mTOR",,"concentration not given, high dose, unit not given, together with: ethanol",relative to: β-actin,protein level,0.843 and 1.06 and 0.921
Cc1cc(NC2CCN(C)CC2)ccc1-c1cc2c(N3CCC[C@H](C(=O)NCc4ccc(OC(F)(F)F)cc4)C3)ncnc2[nH]1,NCI-H3122,"cell growth or viability, MTT",,"0.0016 µg/mL, 72 h",,inhibition,25.3%
O=C(N[C@@H](Cc1ccc(OCCCCC2CCNCC2)cc1)C(=O)O)c1nc2ccccc2o1.O=C(O)C(F)(F)F,platelets,impedance aggregometry,"human, diluted whole blood","100 nM, together with: ADP",relative to: untreated,ADP-induced aggregation,0.31 and 0.619 and 0.561 and 0.302
Cc1ncsc1-c1ccc(C(C)NC(=O)C2CC(O)CN2C(=O)C(NC(=O)CCCCCCCCCCN2CCCC(Nc3ncc(Cl)c(Nc4ccccc4S(=O)(=O)C(C)C)n3)C2)C(C)(C)C)cc1 (centres unmarked),22Rv1,"RNA-seq, measured: RAP1GAP2 mRNA",,concentration not given,relative to: DMSO,log2 fold change,-1.55
CO[C@@H]1[C@@H](OC(N)=O)[C@@H](O)[C@H](Oc2ccc3c(O)c(NC(=O)c4ccc(O)c(CC=C(C)C)c4)c(=O)oc3c2C)OC1(C)C,HCT-116 parental,,,75 µM,relative to: untreated,colony survival,79.2%
COc1ccc(CNc2ccc3c(c2)S(=O)(=O)C=C3)cc1,T98G,resazurin,,"5 µM, 24 h",,viability,55%
O=C(C[Se]C(=O)c1cc2ccccc2[nH]1)Nc1cccc(C(F)(F)F)c1,NCI60 breast subpanel mean,cell growth,,,,TGI,3.98 µM
CC[C@H](C)[C@H](NC(=O)[C@H](Cc1ccccc1)NC(=O)[C@H](CCC(=O)O)NC(=O)[C@H](CCCCN)NC(=O)[C@H](C)NC(=O)[C@H](C)NC(=O)[C@H](CCC(N)=O)NC(=O)CNC(=O)[C@H](CCC(=O)O)NC(=O)[C@H](CC(C)C)NC(=O)[C@H](Cc1ccc(O)cc1)NC(=O)[C@H](CO)NC(=O)[C@H](CO)NC(=O)[C@@H](NC(=O)[C@H](CC(=O)O)NC(=O)[C@H](CO)NC(=O)[C@@H](NC(=O)[C@H](Cc1ccccc1)NC(=O)[C@@H](NC(=O)CNC(=O)[C@H](CCC(=O)O)NC(=O)[C@H](C)NC(=O)[C@@H](N)Cc1c[nH]cn1)[C@@H](C)O)[C@@H](C)O)C(C)C)C(=O)N[C@@H](C)C(=O)N[C@@H](Cc1c[nH]c2ccccc12)C(=O)N[C@@H](CC(C)C)C(=O)N[C@H](C(=O)N[C@@H](CCCCN)C(=O)NCC(=O)N[C@@H](CCCNC(=N)N)C(N)=O)C(C)C,"GIPR and β2AR, mTurquoise, SYFP2, HeLa",TIRF microscopy,,1 µM,,GIPR-β2AR subcellular localisation,no effect
CNS(=O)(=O)Nc1nccc(Cc2c(C)c3ccc(Oc4ncccc4F)cc3oc2=O)c1F,SNU-475,cell viability,,7 days,,IC50,> 1 µM
COC(=O)[C@H](C)NC(=O)[C@H](C)NC(=O)c1csc(-c2cccnc2)n1,C4-2,cell growth or viability,,,,EC50,> 30 µM
OCCCC(=C(c1ccc(O)cc1)c1ccc(O)cc1)[c-]1cccc1.[Fe+2].c1cc[cH-]c1,NCI60 panel,,,"48 h, mean-graph midpoint",,TGI,3.19 µM
CCCCCCc1cccc(C(O)CC(CO)NC(=O)CCCCCCCCCCNC(C)=O)c1 (centres unmarked),HeLa,"CERT activity, HPLC-MS/MS lipidomics, measured: sphingomyelin 20",,"1 µM, 24 h, not cell-number normalised",,sphingomyelin level,3280 pmol/sample and 2660 pmol/sample and 2320 pmol/sample
COc1cccc(OC)c1-c1cc(C(=O)NC2(C(=O)O)C3CC4CC(C3)CC2C4)nn1-c1ccc(C(=O)N(C)CCCN(C)CCCN(C)C(=O)[C@H](CCCCNC(=O)[C@H](CC(C)C)NC(=O)C2OC2C(=O)O)NC(=O)CN2CCN(CC(=O)[O-])CCN(CC(=O)[O-])CCN(CC(=O)[O-])CC2)cc1C(C)C.[177Lu+3] (mixture of isomers),HT-29,,,"concentration not given, 30 min",relative to: added activity,internalized fraction,3.26 ± 0.29%
C=CC(=O)N1[C@H](c2ccc3c(c2)OCO3)c2[nH]c3ccccc3c2C[C@@H]1C(=O)NC1CC1,rat DRG neurons,,,"0.004572 µM, 48 h, together with: vincristine 40 nM",,mean neuron degeneration,83.2%
CN1CCCNC(=O)c2cccc(c2)C(=O)NCCCN(C)CCCNc2cccc3c2C(=O)c2cccc(c2C3=O)NCCC1,SAS,"RNA-seq, measured: MT-TY mRNA",,"1 µM, 6 h",relative to: untreated cells,log2 fold change,1.24
COc1ccccc1-c1ccncc1C(=O)Nc1nnc(OCc2ccc(Cl)cc2)s1,DLD-1 parental,,,"0.125 µM, single replicate",,colony count,78 and 75 and 65 and 81 and 68
COC(=O)c1cc(NC2=NC(=O)C(=Cc3ccc(C)cc3)S2)ccc1OC(C)=O,MCF7,"GC-MS, measured: Trimethylamine",,1 µM,relative to: DMSO,metabolite level,-0.71 fold change
CC(C)c1ccc(N(C)c2ccc3c(c2)OCC[C@H]3CNc2cnccc2C(=O)O)cc1,SW1710,"cell growth or viability, ATP luminescence",,7 days,,IC50,0.0633 µM
Cc1cccc(-c2cccc(C)n2)n1.Cc1cccc(-c2cccc(C)n2)n1.F[P-](F)(F)(F)(F)F.F[P-](F)(F)(F)(F)F.[Ru+2].c1ccc2c(c1)Cc1cc(-c3nc4c5cccnc5c5ncccc5c4[nH]3)ccc1-2,SK-MEL-28,"cell growth or viability, resazurin",,dark,,EC50,20.5 µM
Cn1ncc2cc(-c3cncc(Cl)c3N3CCC4(CCNC4=O)CC3)ccc21,LS174T,"gene expression, microarray, measured: POU2AF1 (BOB1) mRNA",,"concentration not given, 24 h",relative to: untreated cells,log2 fold change,2.45
N#Cc1cccc(/C=C/C(=O)c2ccc(O)cc2)c1,U-87 MG,measured: DNAJB4,,concentration not given,relative to: untreated,fold change,28.4
Cc1cccc(-c2cccc(C)n2)n1.Cc1cccc(-c2cccc(C)n2)n1.F[P-](F)(F)(F)(F)F.F[P-](F)(F)(F)(F)F.[Ru+2].c1cc2ccc3ccc(-c4nc5c6cccnc6c6ncccc6c5[nH]4)c4ccc(c1)c2c34,SK-MEL-28,,,"normoxia, together with: green light 523 nm, 100 J/cm2",relative to: dark over light EC50,phototoxicity index,12
CSCC[C@H](NC(=O)[C@H](CCC(N)=O)NC(=O)[C@H](CCCCN)NC(=O)[C@H](CCCNC(=N)N)NC(=O)[C@H](Cc1ccc(O)cc1)NC(=O)[C@H](CCCNC(=N)N)NC(=O)[C@H](CO)NC(=O)[C@H](Cc1ccc(O)cc1)NC(=O)[C@H](CO)NC(=O)[C@H](CC(=O)O)NC(=O)[C@@H](NC(=O)[C@@H](N)Cc1ccccc1)[C@@H](C)O)C(=O)N[C@@H](C)C(=O)N[C@H](C(=O)N[C@@H](CCCCN)C(=O)N[C@@H](CCCCN)C(=O)N[C@@H](Cc1ccc(O)cc1)C(=O)N[C@@H](CC(C)C)C(=O)N[C@@H](C)C(=O)N[C@@H](C)C(=O)N[C@H](C(=O)N[C@@H](CC(C)C)C(=O)NCC(=O)N[C@@H](CCCCN)C(=O)N[C@@H](CCCNC(=N)N)C(=O)N[C@@H](Cc1ccc(O)cc1)C(=O)N[C@@H](CCCCN)C(=O)N[C@@H](CCC(N)=O)C(=O)N[C@@H](CCCCn1cc(C[C@H](NC(=O)CNC(=O)[C@H](CO)NC(=O)[C@H](CCCNC(=N)N)NC(=O)[C@H](CO)NC(=O)[C@H](CC(C)C)NC(=O)[C@H](CC(C)C)NC(=O)CNC(=O)[C@H](C)NC(=O)[C@H](CC(C)C)NC(=O)[C@H](CCCNC(=N)N)NC(=O)[C@H](Cc2c[nH]cn2)NC(=O)[C@@H](NC(=O)[C@@H](N)C(C)C)[C@@H](C)O)C(=O)N[C@H](C(=O)N[C@H](C(=O)N[C@@H](CCCCN)C(=O)N[C@@H](CC(N)=O)C(=O)N[C@@H](CC(N)=O)C(=O)N[C@@H](Cc2ccccc2)C(=O)N[C@H](C(=O)N2CCC[C@H]2C(=O)N[C@H](C(=O)N[C@@H](CC(N)=O)C(=O)N[C@H](C(=O)NCC(=O)N[C@@H](CO)C(=O)N[C@@H](CCCCN)C(=O)N[C@@H](C)C(=O)N[C@@H](Cc2ccccc2)C(N)=O)C(C)C)[C@@H](C)O)C(C)C)C(C)C)C(C)C)nn1)C(=O)N[C@H](C(=O)N[C@@H](CCCCN)C(=O)N[C@@H](CC(N)=O)C(=O)N[C@@H](CCCCN)C(N)=O)C(C)C)C(C)C)C(C)C,transfected COS-7 cells,"cAMP accumulation, antagonist",,together with: VIP,,A2,3.55 µM
Cc1cc(Cl)cc(-c2ccnc3cc(CN4C(=O)C5C(C4=O)C5(C)C)sc23)c1C[C@@H]1CNCCO1 (some centres unmarked),CHP-212 resistant subline R3,annexin V/PI flow cytometry,,"0.3 µM, 48 h",,late apoptotic cells,11.5% and 5.79% and 6.49%

# A few entries again:
Structure (SMILES),target or system,assay,system,setting,scale,measurement,result
COc1ccc(CNc2ccc3c(c2)S(=O)(=O)C=C3)cc1,T98G,resazurin,,"5 µM, 24 h",,viability,55%
CC(C)c1ccc(N(C)c2ccc3c(c2)OCC[C@H]3CNc2cnccc2C(=O)O)cc1,SW1710,"cell growth or viability, ATP luminescence",,7 days,,IC50,0.0633 µM
CCN(CC)CC(=O)Nc1cccc(-n2cc(-c3ccc4ccc(-c5cn(-c6cccc(NC(=O)CN(CC)CC)c6)nn5)cc4c3)nn2)c1,RCC4,"PCR angiogenesis array, measured: MMP9",,"5 x IC50, 4 h, normoxia",relative to: untreated,fold regulation,-1.32
O=C(N[C@@H](Cc1ccc(OCCCCC2CCNCC2)cc1)C(=O)O)c1nc2ccccc2o1.O=C(O)C(F)(F)F,platelets,impedance aggregometry,"human, diluted whole blood","100 nM, together with: ADP",relative to: untreated,ADP-induced aggregation,0.31 and 0.619 and 0.561 and 0.302
CN1CCCNC(=O)c2cccc(c2)C(=O)NCCCN(C)CCCNc2cccc3c2C(=O)c2cccc(c2C3=O)NCCC1,SAS,"RNA-seq, measured: MT-TY mRNA",,"1 µM, 6 h",relative to: untreated cells,log2 fold change,1.24
